Published values collected from several papers.
Each line is one published result; not all experiments were run side by side.

SMILES | target or system | test | test system | conditions | quantity | result
COc1cc(-c2nc3ccccc3c(=O)n2Nc2ccc([N+](=O)[O-])cc2[N+](=O)[O-])ccc1OCc1cn(CC(=O)Nc2ccc([N+](=O)[O-])cc2C)nn1 | – | DPPH scavenging, absorbance | – | 100 µM | inhibition | 23.1%
Cn1nnc(-c2cccnc2SCC(=O)c2ccc(F)cc2)n1 | Trypanosoma brucei | parasite growth, resazurin | – | – | EC50 | > 64 µM
CC(=NNC(N)=S)c1ccc(Nc2nnc(-c3ccc(Cl)cc3)c3ccccc23)cc1 | HepG2 | cell growth or viability, MTT | – | 1.25 µM, 24 h | viability | 7.65%
CN(O)N=Nc1ccc(S(=O)(=O)Nc2nccs2)cc1 | – | DPPH scavenging, absorbance | – | 60 µg/mL | inhibition | 13%
Cc1cc(C)c(C#N)c(SCC(=O)c2ccccc2C)n1 | Trypanosoma brucei | parasite growth, resazurin | RHODESIENSE | – | EC50 | 33.5 µM
O=S(=O)(Nc1nccs1)c1ccc(N=NN(O)c2ccccc2)cc1 | – | DPPH scavenging, absorbance | – | 60 µg/mL | inhibition | 31%
C=C[C@@]1(C)C=C2CC[C@@H]3[C@](C)(CCC[C@@]3(C)C(=O)O)[C@H]2CC1 | Helicobacter pylori | microbial growth, broth dilution | – | 0.48 µg/mL | inhibition | 13.9%
O=C(C=Cc1ccccc1)Nc1ccc(Oc2nnc(-c3ccc(Cl)cc3)c3ccccc23)cc1 | HepG2 | cell growth or viability, MTT | – | 5 µM | cell death | 97.5%
CCN(O)N=Nc1ccc(S(=O)(=O)Nc2nccs2)cc1 | – | DPPH scavenging, absorbance | – | 300 µg/mL | inhibition | 30.8%
CC[C@H]1OC(=O)[C@H](C)[C@@H](O[C@H]2C[C@@](C)(OC)[C@@H](O)[C@H](C)O2)[C@H](C)[C@@H](O[C@@H]2O[C@H](C)C[C@H](N(C)C)[C@H]2O)[C@](C)(OC)C[C@@H](C)C(=O)[C@H](C)[C@@H](O)[C@]1(C)O | Helicobacter pylori | microbial growth, broth dilution | – | 31.25 µg/mL | inhibition | 100%
O=C(Nc1ccc(Oc2nnc(-c3ccc(Cl)cc3)c3ccccc23)cc1)c1ccccc1 | HepG2 | cell growth or viability, MTT | – | 1.25 µM, 24 h | viability | 4.88%
CCCN(O)N=Nc1ccc(S(=O)(=O)Nc2onc(C)c2C)cc1 | – | DPPH scavenging, absorbance | – | 60 µg/mL | inhibition | 8.22%
Cc1ccccc1NC(=O)Nc1ccc(-c2ccc3ncn(Cc4ccccc4)c(=O)c3c2)cn1 | NCI-H1975 | cell growth or viability, CCK-8 | – | 72 h | IC50 | 1.95 µM
CCCN(O)N=Nc1ccc(S(=O)(=O)Nc2cc(C)on2)cc1 | – | DPPH scavenging, absorbance | – | 20 µg/mL | inhibition | 5.83%
CC(=NNC(=O)c1ccccc1)c1ccc(Nc2nnc(-c3ccc(Cl)cc3)c3ccccc23)cc1 | HepG2 | cell growth or viability, MTT | – | 0.312 µM | cell death | 0.43%
Cc1cc(C(F)(F)F)c(C#N)c(SCC(=O)c2ccccc2)n1 | Trypanosoma brucei | parasite growth, resazurin | – | – | EC50 | 32.6 µM
CCN(O)N=Nc1ccc(S(=O)(=O)Nc2cc(C)on2)cc1 | – | DPPH scavenging, absorbance | – | 180 µg/mL | inhibition | 32.4%
CC(=NNC(=O)c1ccncc1)c1ccc(Nc2nnc(-c3ccc(Cl)cc3)c3ccccc23)cc1 | HepG2 | cell growth or viability, MTT | – | 0.625 µM, 24 h | viability | 7.84%
COc1cc(-c2cc(=O)c3c(O)cc(O)cc3o2)ccc1O | Helicobacter pylori | microbial growth, broth dilution | – | 7.81 µg/mL | inhibition | 100%
CN(Cc1ccc(C2(C(F)(F)F)CC2)cc1)Cc1cccc2ccccc12 | Trichophyton mentagrophytes | microbial growth, disc diffusion | ATCC18748 | 0.064 µg/mL, 72 h | inhibition zone | 55 mm
CCCN(O)N=Nc1ccc(S(=O)(=O)Nc2nccs2)cc1 | – | DPPH scavenging, absorbance | – | 180 µg/mL | inhibition | 16.4%
CC(=NNC(=O)c1ccccc1Br)c1ccc(Nc2nnc(-c3ccc(Cl)cc3)c3ccccc23)cc1 | HepG2 | cell growth or viability, MTT | – | 10 µM, 24 h | viability | 4.5%
CCCCNC(=O)Nc1ccc(-c2ccc3ncn(CCCC)c(=O)c3c2)cn1 | NCI-H1975 | cell growth or viability, CCK-8 | – | 72 h | IC50 | 6.86 µM
